Assay results of several laboratories.
Each line is one published result; not all experiments were run side by side.
CDK9 with cyclin K: Cyclin-dependent kinase 9, with cyclin K (CDK9, Homo sapiens, UniProt P50750)
Sequence of UniProt P50750 (whole entry, looked up): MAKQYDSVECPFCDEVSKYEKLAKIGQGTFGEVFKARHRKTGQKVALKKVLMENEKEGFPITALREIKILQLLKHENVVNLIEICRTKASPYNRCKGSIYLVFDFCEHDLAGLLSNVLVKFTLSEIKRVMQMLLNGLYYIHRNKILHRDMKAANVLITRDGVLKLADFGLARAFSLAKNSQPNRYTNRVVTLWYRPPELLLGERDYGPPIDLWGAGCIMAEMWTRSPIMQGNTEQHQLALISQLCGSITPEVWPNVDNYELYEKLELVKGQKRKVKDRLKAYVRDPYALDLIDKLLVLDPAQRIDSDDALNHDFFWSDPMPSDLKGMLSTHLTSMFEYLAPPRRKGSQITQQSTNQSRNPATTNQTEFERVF
SMARCA4: SWI/SNF-related matrix-associated actin-dependent regulator of chromatin subfamily A member 4 (SMARCA4, Homo sapiens, UniProt P51532)
Sequence of UniProt P51532 (whole entry, looked up): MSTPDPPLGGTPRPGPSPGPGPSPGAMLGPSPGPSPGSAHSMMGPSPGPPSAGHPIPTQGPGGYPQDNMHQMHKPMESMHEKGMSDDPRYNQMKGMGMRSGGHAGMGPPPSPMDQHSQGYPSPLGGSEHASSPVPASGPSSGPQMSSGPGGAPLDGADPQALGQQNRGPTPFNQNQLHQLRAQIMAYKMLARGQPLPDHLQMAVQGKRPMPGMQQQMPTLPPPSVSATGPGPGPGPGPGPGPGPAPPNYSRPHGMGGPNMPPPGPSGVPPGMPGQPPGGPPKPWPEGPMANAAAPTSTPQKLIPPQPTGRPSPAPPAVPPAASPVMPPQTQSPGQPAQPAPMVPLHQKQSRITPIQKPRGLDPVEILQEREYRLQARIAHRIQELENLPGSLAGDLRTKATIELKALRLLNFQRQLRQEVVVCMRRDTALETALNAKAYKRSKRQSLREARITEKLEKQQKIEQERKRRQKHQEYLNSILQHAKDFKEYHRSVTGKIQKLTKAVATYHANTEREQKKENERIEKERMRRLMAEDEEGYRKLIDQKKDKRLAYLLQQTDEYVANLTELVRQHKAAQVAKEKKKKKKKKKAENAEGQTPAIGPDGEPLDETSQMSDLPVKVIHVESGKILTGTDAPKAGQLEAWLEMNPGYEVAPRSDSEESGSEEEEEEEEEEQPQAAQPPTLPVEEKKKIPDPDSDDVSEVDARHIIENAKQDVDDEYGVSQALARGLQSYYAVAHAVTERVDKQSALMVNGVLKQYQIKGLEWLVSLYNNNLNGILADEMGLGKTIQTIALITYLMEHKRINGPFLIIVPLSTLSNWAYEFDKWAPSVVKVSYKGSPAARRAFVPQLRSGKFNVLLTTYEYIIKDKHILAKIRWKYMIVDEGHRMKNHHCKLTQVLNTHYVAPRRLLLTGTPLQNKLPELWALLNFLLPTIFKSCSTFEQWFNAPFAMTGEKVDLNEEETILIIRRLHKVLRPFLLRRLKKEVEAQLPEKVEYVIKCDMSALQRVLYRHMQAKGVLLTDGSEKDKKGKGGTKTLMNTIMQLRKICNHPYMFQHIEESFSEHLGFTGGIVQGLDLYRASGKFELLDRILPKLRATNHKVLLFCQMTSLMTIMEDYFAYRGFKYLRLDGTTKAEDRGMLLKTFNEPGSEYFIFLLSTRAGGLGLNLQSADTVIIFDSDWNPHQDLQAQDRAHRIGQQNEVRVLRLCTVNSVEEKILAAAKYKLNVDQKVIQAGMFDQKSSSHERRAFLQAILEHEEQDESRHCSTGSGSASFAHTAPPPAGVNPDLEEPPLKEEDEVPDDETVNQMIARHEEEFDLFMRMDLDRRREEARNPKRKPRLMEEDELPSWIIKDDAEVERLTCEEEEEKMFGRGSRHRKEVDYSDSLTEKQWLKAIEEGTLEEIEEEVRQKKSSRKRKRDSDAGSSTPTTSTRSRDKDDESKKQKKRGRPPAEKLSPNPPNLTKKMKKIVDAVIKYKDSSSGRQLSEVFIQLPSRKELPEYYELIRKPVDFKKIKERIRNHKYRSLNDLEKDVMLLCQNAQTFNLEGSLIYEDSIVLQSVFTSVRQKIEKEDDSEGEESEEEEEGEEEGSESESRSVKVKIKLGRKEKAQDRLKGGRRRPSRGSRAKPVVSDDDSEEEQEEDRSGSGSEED
Sequence of UniProt P53667 (whole entry, looked up): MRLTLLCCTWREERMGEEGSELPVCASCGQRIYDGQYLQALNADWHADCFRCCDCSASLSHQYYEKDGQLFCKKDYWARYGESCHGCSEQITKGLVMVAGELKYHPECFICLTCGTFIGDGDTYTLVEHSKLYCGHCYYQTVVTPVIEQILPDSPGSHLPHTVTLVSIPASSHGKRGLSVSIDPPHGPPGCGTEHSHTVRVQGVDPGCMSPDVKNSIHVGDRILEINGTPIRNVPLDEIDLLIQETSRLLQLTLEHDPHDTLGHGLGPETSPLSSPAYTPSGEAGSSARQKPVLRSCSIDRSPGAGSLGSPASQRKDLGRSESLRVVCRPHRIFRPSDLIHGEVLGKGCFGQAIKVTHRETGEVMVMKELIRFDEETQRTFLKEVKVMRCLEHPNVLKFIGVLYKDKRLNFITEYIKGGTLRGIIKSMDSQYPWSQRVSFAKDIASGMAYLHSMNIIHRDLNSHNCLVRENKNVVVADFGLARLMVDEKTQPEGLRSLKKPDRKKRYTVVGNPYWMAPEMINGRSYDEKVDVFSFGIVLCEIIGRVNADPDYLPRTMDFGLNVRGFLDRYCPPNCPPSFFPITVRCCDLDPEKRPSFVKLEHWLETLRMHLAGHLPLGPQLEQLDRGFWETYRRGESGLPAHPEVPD

COc1cc(-c2nn(C3CCC(N4CCN(C)CC4)CC3)c3ncnc(N)c23)ccc1NC(=O)OCc1ccccc1 (stereo not drawn) — inhibitory concentration range (LIM domain kinase 1 (LIMK1, Homo sapiens, UniProt P53667); kinase activity, inhibitor, BiFC): 5 to 10 µM
CC1(C)NC(N)=Nc2nc3cc(Cl)c(Cl)cc3n21 — CC50 (THP-1-derived macrophages; 72 h, max 1% DMSO): > 50 µM
NC(=O)[C@@H](O)C[C@H]1CCc2sc3ncnc(O[C@H]4CC[C@H](N5CCOCC5)CC4)c3c21 — inhibition (CDK9 with cyclin K; inhibitor; 10 µM): 28%
Nc1nnc(-c2ccccc2O)cc1N1CC2CCC(C1)N2c1ccnc(C#CCCN2CCCCCC2)c1 — remaining protein (SMARCA4; degrader, immunoblot; SW1573; concentration not given, 15 min; relative to: DMSO): 80.3%
CC(=O)N1c2ccc(-c3ccc(CNC(=O)c4cn5cc(-c6cnc(N)nc6)nc(N6CCOCC6)c5n4)cc3)cc2CC[C@@H]1C — remaining activity (SMARCA4; 10 µM): 100%
O=C(O)c1ccc(Cn2c(=O)n(Cc3ccc(C(=O)NCC4COC4)cc3)c(=O)c3ccccc32)cc1 — CC50 (HEp-2; 5 days): > 50 µM
O=C1Nc2cc(OC(F)(F)F)ccc2Oc2ccc(-c3ccnc(N4CCNCC4)c3)cc21 — inhibitory concentration range (tyrosine-protein kinase ABL1 (Rattus norvegicus, UniProt A0ABK0LKB8); CRKII phosphorylation, inhibitor, in vitro kinase; rat neuron c-Abl; together with: 100 µM H2O2 stimulus): 0.1 to 1 µM
Cn1cc(-c2cc(N3CCCCS3(=O)=O)ccc2N[C@H]2CC[C@H](C)CC2)c2cc[nH]c2c1=O (stereo in doubt) — remaining activity (SMARCA4; enzyme activity; 1 µM): 100%
CC1(C)NC(N)=Nc2nc3ccc(Cl)cc3n21 — CC50 (THP-1-derived macrophages; 72 h, max 1% DMSO): > 100 µM
CN1CCN(Cc2ccc(-c3ccc(CO[C@H]4CCC[C@@H]4NC(=O)c4cc(-c5cnn(C)c5)cnc4N)cc3)cc2)CC1 — inhibition (CDK9 with cyclin K; inhibitor; 0.1 µM): 0%
NC(=O)C[C@H]1CCc2sc3ncnc(O[C@H]4CC[C@H](N5CCOCC5)CC4)c3c21 — inhibition (CDK9 with cyclin K; inhibitor; 10 µM): 34%
CCCCC[C@H](O)/C=C/[C@H]1[C@H](O)CC(=O)[C@@H]1C/C=C\CCCC(=O)O — IC50 fold change (SLCO2A1 (Homo sapiens, UniProt Q92959, S346F); cells expressing mutant SLCO2A1; relative to: wild type SLCO2A1): 3.5 fold

Excerpt of the above:
NC(=O)[C@@H](O)C[C@H]1CCc2sc3ncnc(O[C@H]4CC[C@H](N5CCOCC5)CC4)c3c21 — inhibition (CDK9 with cyclin K; inhibitor; 10 µM): 28%
